# Measured values collected from several papers.
# Compare with care: the assays were run in different laboratories.
# Observed: metabolic stability
Compound,test system,conditions,measurement,result
COc1ccc2c(c1OCc1ccccc1)C[C@@H](C(=O)O)N(c1nc3ccc(F)cc3o1)C2,"rat, liver microsomes","1 µM, pH 7.4",scaled CLint,12.5 mL/min/kg
CN1C(=O)C2(Nc3ccccc3C(=O)N2Cc2ccccc2)c2cc(Br)ccc21 (stereo not drawn),"rat, hepatocytes",,hepatocyte CLint,> 300 µL/min/10⁶ cells
Cc1cc(N2CCC(C#N)(C3(C)CC3)C2=O)cc(C(=O)NCc2cc(F)cc(-c3cnn(C)c3)c2)n1 (racemic),"rat, liver microsomes",0.5 µM,microsomal CLint,39 µL/min/mg
CC1(CCCCCCCCCCOCCCOP(=O)(O)CO[C@H](CO)Cn2ccc(N)nc2=O)COC1,"rat, hepatocytes",1 µM,hepatocyte CLint,18.8 µL/min/10⁶ cells
CCn1cc(C(=O)NCCNCCO)c(=O)c2cc(OCc3ccc(C(C)(C)C)cc3)c(Cl)cc21,"male rat, liver microsomes",1 µM,microsomal CLint,< 11.6 µL/min/mg
COc1cncc(-c2cc(F)cc(CNC(=O)c3cc(N4CC[C@@](C#N)(C5CC5)C4=O)cc(C)n3)c2)c1,"rat, liver microsomes",0.5 µM,microsomal CLint,79 µL/min/mg
CCn1cc(C(=O)NCCNCCO)c(=O)c2cc(OCc3ccc(F)cc3)c(Cl)cc21,"male rat, liver microsomes",1 µM,microsomal CLint,< 11.6 µL/min/mg
CC1(CCCCCCCCCCCCOCCCOP(=O)(O)CO[C@H](CO)Cn2ccc(N)nc2=O)COC1,"rat, hepatocytes",1 µM,hepatocyte CLint,60.6 µL/min/10⁶ cells
NC[C@@H](C(=O)Nc1ccc(-c2cn[nH]c2)cc1)c1ccccc1,"rat, liver microsomes",,microsomal CLint,15 µL/min/mg
"COc1cc(C)c(-c2ccc(O)c3c2C[C@@H](C)N[C@@H]3C)c2cccc(O)c12 (single isomer, unassigned)","male rat, liver microsomes",1 µM,microsomal CLint,86.6 µL/min/mg
COc1cc2c(=O)c(C(=O)NCCNCCO)cn(Cc3ccccc3)c2cc1OCc1ccc(C(C)(C)C)cc1,"male rat, liver microsomes",1 µM,microsomal CLint,< 11.6 µL/min/mg
CC1(CCCCCCCCCCCCCCOCCCOP(=O)(O)CO[C@H](CO)Cn2ccc(N)nc2=O)COC1,"rat, hepatocytes",1 µM,hepatocyte CLint,154 µL/min/10⁶ cells
C=C(C)C(=O)Nc1ccc(-c2c(-c3ccc(Oc4nccc(C)n4)cc3)c3c(N)ncnc3n2C)cc1,"rat, hepatocytes",,hepatocyte CLint,12 µL/min/10⁶ cells
Nc1ccn(C[C@@H](CO)OCP(=O)(O)OCCCS(=O)(=O)CCCCCCCCCCC2CCC2)c(=O)n1,"rat, hepatocytes",1 µM,hepatocyte CLint,22.2 µL/min/10⁶ cells
COc1ccc(COc2c(OC)ccc3c2C[C@@H](C(=O)O)N(c2nc4ccc(F)cc4o2)C3)cn1,"rat, liver microsomes","1 µM, pH 7.4",scaled CLint,2.95 mL/min/kg

# Repeated from above:
Compound,test system,conditions,measurement,result
CCn1cc(C(=O)NCCNCCO)c(=O)c2cc(OCc3ccc(F)cc3)c(Cl)cc21,"male rat, liver microsomes",1 µM,microsomal CLint,< 11.6 µL/min/mg
